Experimental data from different studies.
Compare with care: the assays were run in different laboratories. Values joined by “and” are separate records of one study, mostly repeats; a detail may differ. Numbers after ± are the reported error.
UniProt P16152, sequence (whole entry, looked up): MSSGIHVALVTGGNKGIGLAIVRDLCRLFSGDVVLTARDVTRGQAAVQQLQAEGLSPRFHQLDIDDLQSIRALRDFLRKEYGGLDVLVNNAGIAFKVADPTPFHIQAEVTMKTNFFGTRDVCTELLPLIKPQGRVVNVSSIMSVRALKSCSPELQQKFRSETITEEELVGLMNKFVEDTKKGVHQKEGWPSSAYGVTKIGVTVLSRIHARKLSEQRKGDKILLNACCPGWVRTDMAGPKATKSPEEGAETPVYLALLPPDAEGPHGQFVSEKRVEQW

Structure (SMILES) = CCCCC1CNC2CCc3ccc(OC)cc3C12.Cl (racemic); test = RNA sequencing, refers to: ATP synthase subunit genes; test system = SAMP8 mice, hippocampus; conditions = intracerebroventricular, 1.0 µg/µL, 24 h; scale = relative to: vehicle; measurement = mRNA level; value = increased
Structure (SMILES) = CN1CCN(S(=O)(=O)c2cc([N+](=O)[O-])ccc2N(CCOS(C)(=O)=O)CCOS(C)(=O)=O)CC1; test system = NSG mice, sample BG PDX; conditions = intraperitoneal, 25 mg/kg weekly x3; measurement = event-free survival; value = 269 days
Structure (SMILES) = [131I-].[Na+]; test = ATA response criteria; test system = human, papillary thyroid cancer with metastases; conditions = 3700 MBq; measurement = indeterminate response; value = 17.6%
Structure (SMILES) = CC(C)C1CCC(N2CCC(N3C(=O)/C(=N\O)c4ccccc43)CC2)CC1 (centres unmarked); test system = conscious Sprague-Dawley rat; conditions = intravenous bolus, 100 nmol/kg; measurement = heart rate; value = decreased
Structure (SMILES) = NC(=O)c1cccc(-c2c[nH]c3ncnc(N4CCOCC4)c23)c1; test = Western blot, refers to: MOB1 Thr35 phosphorylation; test system = C57BL/6 mice, liver; conditions = intraperitoneal, 20 mg/kg, 1 h; scale = relative to: vehicle; measurement = phospho-MOB1 level; value = decreased
Structure (SMILES) = C[C@H]1O[C@@H](O[C@H]2CC[C@@]3(C)[C@@H](CC[C@]4(C)[C@@H]3C=C[C@]35OC[C@@]6(CCC(C)(C)C[C@H]63)[C@@H](O)C[C@]54C)[C@]2(C)CO)[C@H](O)[C@@H](O[C@@H]2O[C@H](CO)[C@@H](O)[C@H](O)[C@H]2O)[C@H]1O; test = H&E staining; test system = hepatic SIRT1 knockdown mice, no ethanol, liver; conditions = dose not given, AAV8-TBG-shRNA, high dose; measurement = steatosis area; value = 14.9% and 11.1% and 8.68% and 11.6% and 12.5% and 10.6%
Structure (SMILES) = Cc1cn(-c2cc(NC(=O)c3ccc(C)c(Nc4nccc(-c5cccnc5)n4)c3)cc(C(F)(F)F)c2)cn1; test system = Alzheimer's disease patients; conditions = dose not given, baseline, group mean; scale = direction not given; measurement = MMSE score; value = 18.8 ± 4
Structure (SMILES) = COc1cc2nccc(Oc3ccc(NC(=O)c4cc5c(n(-c6ccccc6)c4=O)CCCC5=O)nc3)c2cc1OC; test system = patients, with AML, R/R; conditions = dose not given, monotherapy; measurement = resistant disease treatment failure; value = 65%
Structure (SMILES) = FC(F)(F)c1ccc2c(c1)[C@@H]1CNC[C@H]2C1; test = intermittent two-bottle choice; test system = Wistar rat, 20% ethanol drinking; conditions = subcutaneous, 5 mg/kg, 6 h; scale = relative to: ethanol over total fluid intake; measurement = ethanol preference; value = 38 ± 3%
Structure (SMILES) = CC[C@H](C)[C@@H]1NC(=O)[C@@H]2CCCN2C(=O)[C@H](CC(C)C)NC(=O)[C@H](CC(C)C)NC(=O)CNC(=O)[C@@H](NC(=O)[C@@H](NC(=O)[C@H](CC(=O)O)NC(=O)CNC(=O)[C@@H](NC(=O)[C@H](C)NC(=O)CNC(=O)[C@H](CCCCN)NC(=O)[C@H](CC(C)C)NC(=O)[C@H](CC(C)C)NC(=O)[C@H](CCCCN)NC(=O)CNC(=O)[C@@H](NC(=O)[C@@H](N)CC(C)C)C(C)C)C(C)C)C(C)C)CSSC[C@@H](C(=O)O)NC1=O; test = RNA-seq, refers to: Bdkrb2; test system = mouse, traumatic brain injury model, frontal cortex and hippocampus; conditions = dose not given; scale = relative to: TBI alone; measurement = log2 fold change; value = -1.81
Structure (SMILES) = Clc1cc2c(cc1Cl)Oc1cc(Cl)c(Cl)cc1O2; test = RNA-Seq, refers to: Ptger3; test system = Sprague-Dawley rat, female, liver; conditions = 10 µg/kg; scale = relative to: vehicle; measurement = mRNA fold change; value = 1.8 fold
Structure (SMILES) = CS(=O)(=O)c1ccc(-c2nnc(/C=C/c3nnc(-c4ccc(C#N)cc4)o3)n2-c2ccccc2Cl)nc1; test = RNA-seq GSEA, refers to: FALLER_ENTEROCYTE_PRO_MOUSE; test system = organoids, small intestinal, Apc Q1405X, mouse; conditions = dose not given, wild-type organoids; scale = relative to: DMSO, direction not given; measurement = normalized enrichment score; value = -2.41
Structure (SMILES) = COc1ccc2c(c1)CC[C@@H]1[C@@H]2CC[C@]2(C)[C@@H](NCCCCCCN3C(=O)C=CC3=O)CC[C@@H]12; test = calcium response, decay phase; test system = N2a, mouse; conditions = 1 µM, added: BzATP 300 µM; measurement = inhibition; value = 55%
Structure (SMILES) = NC1C2CC3CC(C2)CC1C3 (centres unmarked); test = pH gradient; test system = Escherichia coli inverted membrane vesicles; measurement = IC50; value = > 1000 µM
Structure (SMILES) = C=CC(=O)Nc1cc(Nc2ncc(Cl)c(Nc3ccccc3C(=O)C(=O)N(C)C)n2)c(OC)cc1N1CCN(C)CC1; test = RECIST v1.1 best response; test system = human EGFR T790M NSCLC; conditions = oral, 25 mg/day, per-protocol set; measurement = patients with progressive disease; value = 100%
Structure (SMILES) = C=CCNc1c(O)cc2c(O)c1C[C@@H](C)C[C@H](OC)[C@H](O)[C@@H](C)/C=C(\C)[C@H](OC(N)=O)[C@@H](OC)/C=C\C=C(/C)C(=O)N2; test = RECIST v1.0; test system = human soft tissue sarcoma; conditions = concentration not given, stable at least 6 weeks; measurement = patients with stable disease; value = 59%
Structure (SMILES) = O=S(=O)([O-])C(F)(F)C(F)(F)C(F)(F)C(F)(F)C(F)(F)C(F)(F)C(F)(F)C(F)(F)F.[K+]; test = Western blot, refers to: Cyp2e1; test system = EtOH-fed mice, liver; conditions = dose not given; scale = relative to: efavirenz; measurement = protein expression; value = increased
Structure (SMILES) = CC[C@@H](C)[C@@H](NC(=O)[C@@H](Cc1ccc(O)cc1)NC(=O)[C@H]1CCCN1C(=O)[C@@H](CCCNC(=N)N)NC(=O)[C@H](N)Cc1c[nH]cn1)C(=O)N[C@H](C)C(=O)N[C@H](Cc1c[nH]cn1)C(=O)N[C@H](CCCNC(=N)N)C(=O)N[C@H](CCCCNC(=O)c1cccc(S(=O)(=O)F)c1)C(=O)N[C@H](Cc1ccc(O)cc1)C(=O)N[C@H](CO)C(=O)N[C@H](Cc1ccccc1)C(N)=O; test = ex vivo flow cytometry; test system = GL261-Luc brain tumour mice, spleen; conditions = dose not given; measurement = IFN-γ+ CD8+ T cell frequency; value = 11.8% and 18% and 3.68% and 7.33%
Structure (SMILES) = C[C@H]1CN(c2n[nH]c3nc(N[C@H]4CC[C@H](NS(=O)(=O)CCC(F)(F)F)CC4)ncc23)CCO1; target or system = Carbonyl reductase [NADPH] 1 (CBR1, Homo sapiens, UniProt P16152); test = biochemical; measurement = IC50; value = ≥ 20 µM
Structure (SMILES) = CCCCC1(CCCC)CN(c2ccccc2)c2cc(SC)c(OCC(=O)N[C@@H](C(=O)NCC(=O)O)c3ccccc3)cc2S(=O)(=O)C1; test = refers to: HDL cholesterol; test system = human, serum; conditions = 2.5 mg once daily, day 9; measurement = serum HDL-C; value = 55.3 mg/dL
Structure (SMILES) = NNc1ccccc1; test = hydrazine ligation kinetics, absorbance; conditions = concentration not given, 25 s, added: 2-formylphenylboronic acid; measurement = normalised absorbance; value = 0.882
Structure (SMILES) = CC(C)(C)CC(C)(C)c1ccc(OCCOCC[N+](C)(C)Cc2ccccc2)cc1; test system = C57BL/6J mouse, male, hippocampal slices, Schaffer collateral-CA1; conditions = 300 nM, 60 min; scale = relative to: vehicle; measurement = fEPSP slope; value = increased
Structure (SMILES) = Cc1nc(Nc2ccc(CC(=O)O)cc2)nc(Nc2ccc(F)c(C(F)(F)F)c2)c1C; test = refers to: CPT1A; test system = C57BL/6J mice, high-fat diet, liver; conditions = intraperitoneal, 0.3 mg/kg daily, 60% fat diet 12 weeks, dosed last four; scale = relative to: vehicle; measurement = mRNA level; value = decreased
